Measurements collected from several papers.
Parts stem from different laboratories: compare values within a part only.

Set 1
Target: Interferon regulatory factor 5, full length, phosphomimetic (IRF5, Homo sapiens, UniProt Q13568-2, residues 1-514, K96S/S451D/S453D/S456D/S462D)
Technique: protein-binding microarray
Form: double-stranded DNA, one strand shown
Medium: in vitro
Concentration: 250 nM
Setting: 60-bp whole probe
With: salmon DNA 0.4 mg/ml
Baseline: random background probes
Direction: higher = stronger binding
Constant ends, left off below: GCCTAGCAC … GTCTTGATTCGCTTGACGCTGCTG
| Strand | log fluorescence [z-score] |
| --- | --- |
| GACGGACTGGGTGTCGGGACGTGCTAG | -0.72 |
| GACGGGTTCGGGTATCGGGACGTGCTA | 0.344 |
| TCAATATTCTGCTTTGCACTGTGCTAG | 0.319 |
| GACGGACTGGGTCCCGGGACGTGCTAG | -0.821 |
| GTCACATTGTGCAATCTTAATGTGCTA | 0.135 |
| TTAGATATCAGTCCCGATTAGTGCTAG | 0.932 |
| GACGGTTTCGTACTGGGGACGTGCTAG | 2.81 |
| TTGGTTTCTGGTTTATTGAGGTGCTAG | 4.04 |
| GGCGGTCTCCTTCTCCTGACGTGCTAG | -0.663 |
| GACAGACTGGACTATCGGGACGTGCTA | 0.93 |
| GACAGTATCGGGTATCGGGACGTGCTA | 5.9 |
| GTTGTTTTAAATTCTAATTAGTGCTAG | 0.766 |
| GACGATATCACTTTCGAGACGTGCTAG | 7.81 |
| GAAGATATCAGTCTCGAGACGTGCTAG | 0.753 |
| TCAATTCTCACTGCAGCACTGTGCTAG | 0.49 |
| GTAGGTATCGACTTTCGGTTAGTGCTA | 10.1 |
| TTAGATTTCGGGACTTGATTAGTGCTA | 2.32 |
| GACGGTATCGGGTTTCGGCACGTGCTA | 4.81 |
| TTAGATATCGGGAATGGATTAGTGCTA | 1.6 |

Set 2
Target: Ras GTPase-activating protein-binding protein 1, RRM domain (G3BP1, Homo sapiens, UniProt Q13283)
Chain of UniProt Q13283 (whole entry, looked up): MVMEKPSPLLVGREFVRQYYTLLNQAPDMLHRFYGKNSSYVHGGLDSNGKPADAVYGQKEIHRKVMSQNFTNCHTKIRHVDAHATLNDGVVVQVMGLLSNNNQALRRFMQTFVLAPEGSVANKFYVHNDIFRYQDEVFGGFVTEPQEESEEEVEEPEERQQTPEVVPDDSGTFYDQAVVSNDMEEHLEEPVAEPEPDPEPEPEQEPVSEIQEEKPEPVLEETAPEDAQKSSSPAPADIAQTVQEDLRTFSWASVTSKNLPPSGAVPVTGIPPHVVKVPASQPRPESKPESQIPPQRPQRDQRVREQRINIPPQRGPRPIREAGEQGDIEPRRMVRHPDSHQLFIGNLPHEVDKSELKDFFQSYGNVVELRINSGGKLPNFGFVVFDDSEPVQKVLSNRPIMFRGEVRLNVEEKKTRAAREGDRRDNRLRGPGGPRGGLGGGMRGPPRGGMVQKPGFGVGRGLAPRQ
Technique: RNA Bind-n-Seq
Form: RNA
Medium: in vitro
Concentration: 1 µM
Setting: whole 134-nt RNA, ends assumed
With: 150 mM KCl
Baseline: input library
Direction: higher = stronger binding
Constant ends, left off below: GGGAGUUCUACAGUCCGACGAUC … UGGAAUUCUCGGGUGUCAAGG
| Strand | log2 enrichment |
| --- | --- |
| UGGCCCUGGUGGCAUGCGGGGAGGGAGAGGUGGCCUCAUGGAUCGUGGUGGUCCCGGUGGAAUGUUCAGAGGUGGCCGUGGUGGAGACAG | 0.886 |
| AGUCCUGUGCUACACAUCGUAUGUACCGAAUCGGGAAAAGGGAAAAGGGGAAAAGGGAAAGUAUUAUGUUACGCCGUUCGGAUCUGCACU | 0.51 |
| UCCUGUGCUACACAUCGUAUGUACCGAAUCGGGGAAAGGGGUUUUUUUGGGGAAAGGGGAAAGUAUUAUGUUACGCCGUUCGGAUCUGCA | 1.01 |
| UAACUUUAGAGGAGGAUCUGAUGGAUAUGGCAGUGGACGUGGAUUUGGGGAUGGAUAUAAUGGGUAUGGAGGAGGACCUGGAGGUGGCAA | -0.442 |
| AGUCCUGUGCUACACAUCGUAUGUACCGAAUCGGGGUUUGGGGAAAGGGGUUUGGGGAAAGUAUUAUGUUACGCCGUUCGGAUCUGCACU | 1.28 |
| AGUCCUGUGCUACACAUCGUAUGUACCGAAUCGGUUUGGAAAAAAAGGUUUUUUUGGAAAGUAUUAUGUUACGCCGUUCGGAUCUGCACU | -0.226 |
| UCCUCAAGUCCUGUGCUACACAUCGUAUGUACCGAAUCGGAAAGGAGGUGGAAAGUAUUAUGUUACGCCGUUCGGAUCUGCACUUCCAGC | -0.22 |
| UCCUCAAGUCCUGUGCUACACAUCGUAUGUACCGAAUCGGGAGGGAGGAGGAAAGUAUUAUGUUACGCCGUUCGGAUCUGCACUUCCAGC | -0.253 |
| GUCCUGUGCUACACAUCGUAUGUACCGAAUCAAAUUUAAAUUUUUUUAAACCCCCAAAAAAGUAUUAUGUUACGCCGUUCGGAUCUGCAC | -1.5 |

Set 3
Target: Histone acetyltransferase KAT6A, both winged helices, GST fusion (KAT6A, Homo sapiens, UniProt Q92794, residues 1-181)
Technique: protein binding microarray
Form: double-stranded DNA, one strand shown
Medium: in vitro
Concentration: not given
Setting: 8-mer, flanks averaged, mean of 2 arrays, mostly near background
Baseline: not given
Direction: higher = stronger binding
Residues (chain): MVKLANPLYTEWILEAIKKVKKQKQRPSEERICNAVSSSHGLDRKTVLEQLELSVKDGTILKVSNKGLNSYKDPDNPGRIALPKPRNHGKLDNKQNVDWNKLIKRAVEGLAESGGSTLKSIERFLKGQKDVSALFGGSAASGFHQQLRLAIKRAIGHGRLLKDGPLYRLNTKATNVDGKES
| Strand | E-score |
| --- | --- |
| GACTATCA | -0.117 |
| TCTTCGCA | -0.113 |
| AAACATTA | 0.0947 |
| ACTCTGAA | -0.0317 |
| ACCACCGT | 0.0587 |
| ACCACTGC | -0.0447 |
| AATGCAAT | -0.13 |
| CTACTTCA | -0.0757 |
| GTTCGTTA | -0.0278 |
| AATCTCTG | -0.218 |
| AAGTGGCG | 0.0191 |
| GGTTGTAC | 0.0306 |
| CAACTCTG | -0.105 |
| ACTCCCCA | -0.246 |
| ATGACGTC | 0.163 |
| CGCCCGAC | 0.334 |
| GCCAGTAA | -0.0911 |
| CATCCGAG | 0.0179 |
| ACATCGCC | 0.157 |
| TCTCATAA | -0.219 |
| GGGTTTGA | 0.0115 |
| CAAATTTG | -0.00086 |

Set 4
Target: Sal-like protein 4, full length isoform A (SALL4, Homo sapiens, UniProt Q9UJQ4, residues 1-1053)
Chain of UniProt Q9UJQ4 (whole entry, looked up): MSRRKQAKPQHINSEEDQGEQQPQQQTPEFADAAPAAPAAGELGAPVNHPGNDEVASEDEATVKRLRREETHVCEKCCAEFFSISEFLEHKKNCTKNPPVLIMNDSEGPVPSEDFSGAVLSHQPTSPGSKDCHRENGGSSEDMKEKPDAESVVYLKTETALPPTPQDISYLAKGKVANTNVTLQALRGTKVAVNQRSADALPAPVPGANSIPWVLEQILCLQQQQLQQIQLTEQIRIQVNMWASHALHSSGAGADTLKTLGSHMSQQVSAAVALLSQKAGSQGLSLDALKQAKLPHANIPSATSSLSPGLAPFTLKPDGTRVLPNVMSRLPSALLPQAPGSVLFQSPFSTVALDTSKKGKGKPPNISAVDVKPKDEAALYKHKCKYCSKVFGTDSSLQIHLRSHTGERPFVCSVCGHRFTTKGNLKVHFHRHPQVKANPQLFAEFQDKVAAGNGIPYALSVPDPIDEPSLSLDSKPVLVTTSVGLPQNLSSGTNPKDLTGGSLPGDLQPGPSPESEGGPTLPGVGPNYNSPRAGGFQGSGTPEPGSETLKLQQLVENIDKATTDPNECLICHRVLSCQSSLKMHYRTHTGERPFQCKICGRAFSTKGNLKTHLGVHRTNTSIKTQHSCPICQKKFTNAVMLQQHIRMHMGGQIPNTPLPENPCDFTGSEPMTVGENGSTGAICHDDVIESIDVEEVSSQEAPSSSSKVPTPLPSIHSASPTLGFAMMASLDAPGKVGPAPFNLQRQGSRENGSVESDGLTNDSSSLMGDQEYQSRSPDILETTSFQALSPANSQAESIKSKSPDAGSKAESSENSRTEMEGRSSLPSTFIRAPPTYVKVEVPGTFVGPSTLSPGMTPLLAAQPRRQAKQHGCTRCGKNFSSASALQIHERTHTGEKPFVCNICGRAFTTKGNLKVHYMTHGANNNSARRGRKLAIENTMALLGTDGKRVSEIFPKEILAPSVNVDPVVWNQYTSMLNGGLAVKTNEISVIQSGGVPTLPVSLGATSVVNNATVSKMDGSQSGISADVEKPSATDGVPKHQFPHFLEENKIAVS
Technique: universal PBM
Form: double-stranded DNA, one strand shown
Medium: in vitro
Concentration: 600 nM
Setting: 8-mer, flanks averaged, mean of replicates
Direction: higher = stronger binding
| Strand | E-score |
| --- | --- |
| ATCACGAG | -0.0281 |
| GTATAAGA | 0.246 |
| GACCGAGA | -0.072 |
| CACACCGG | -0.421 |
| CTCGCGAA | -0.0683 |
| CGGACGAA | -0.0181 |
| ATCCCTCG | -0.168 |
| AATCGCGC | -0.0508 |
| AAAAGCGT | 0.0739 |
| GCTCCAGC | -0.226 |
| AAGCTACG | -0.0605 |
| CCACCAAC | -0.26 |
| CTAATCAC | 0.267 |
| CGGCCGAG | -0.22 |
| ATTTACCC | 0.087 |
| CCGGAAGG | -0.199 |
| CACTGAGC | -0.177 |
| CTCGTTGA | -0.0688 |
| CGTCAGGC | -0.205 |
| GACTACCA | 0.0322 |
| CCATTATC | 0.15 |

Some of these lines once more (set 4):
| Strand | E-score |
| --- | --- |
| ATCCCTCG | -0.168 |
| AATCGCGC | -0.0508 |
| AAAAGCGT | 0.0739 |
| GCTCCAGC | -0.226 |
| AAGCTACG | -0.0605 |
| CCACCAAC | -0.26 |
